{"data": "Assay results collected from several papers", "note": "Every numbered part comes from another study and shows a few of its results, in no order. Changes are numbered by the printed parent chain."}
{"data": "Series 1", "target": "RNA binding protein fox-1 homolog 2, RRM domain, GST-SBP tag (RBFOX2, Homo sapiens, UniProt O43251-10, residues 100-194)", "technique": "RNA Bind-n-Seq", "molecule type": "RNA", "matrix": "in vitro", "concentration": "365 nM", "setting": "natural RNA segment, single round, ends assumed", "reference": "no-protein control", "direction": "higher = stronger binding", "Target sequence (chain)": "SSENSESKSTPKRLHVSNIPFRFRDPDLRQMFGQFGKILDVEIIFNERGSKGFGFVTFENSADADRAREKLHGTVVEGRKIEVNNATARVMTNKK"}
{"Oligonucleotide": "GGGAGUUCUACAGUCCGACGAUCUGACAGUGUGUUUUGUAAUCUGUCAAUCAGUGUUGGAGAUAUGCCCAGGCUAUUACAGGCAUAUUAUGGACAAAUAUAAAGGCCAACUAGUGAUCCCAGCCCAAGAGGUUUGGAAUUCUCGGGUGCCAA", "RBNS enrichment (R)": 0.616}
{"Oligonucleotide": "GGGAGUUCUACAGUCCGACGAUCCGGGCAGGACCCCGUCUCCCCAGGUGUCGGAGCCUGACCUGAAUUAAAGUACUGACUGCUCGCCACAUCGUGUGGGUGCAUCCUGCUCCUUGGGGAGCCUUGCUUUCUGCUGGAAUUCUCGGGUGCCAA", "RBNS enrichment (R)": 0.723}
{"Oligonucleotide": "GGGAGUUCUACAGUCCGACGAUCUCAGAUUGUGUAUAUGAAAACAUUAGCAAGUCUUGUUUUUUCUAUGAAGCAAACACAAUUGGUGACAAAGGUUGUCAAUCAUUUCUUCAAAAUUAUAAUGCAGUUCUAAUUGGAAUUCUCGGGUGCCAA", "RBNS enrichment (R)": 0.58}
{"Oligonucleotide": "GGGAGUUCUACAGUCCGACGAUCAUCACUGCUUGGUGCCUGGCAAGCUGGAGAGGUCAGCCUGCUGCCAGGCAACUGGCUGUCUUUGGGAGGGGUGGCUCUUAAGACUCUACCUCUGAUUGCAUCACUAGGACUGGAAUUCUCGGGUGCCAA", "RBNS enrichment (R)": 0.421}
{"Oligonucleotide": "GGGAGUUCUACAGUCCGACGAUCCUCUUUGGCUUAGAAGGCACUCAGAGAAUAUGUGUUAUUCGUGCUCACGGAAAGUUUCUUACUCAUCCCUGUGACUUUGGCUUUAUUUUACAAUAAAACACUGAAAAUGUUGGAAUUCUCGGGUGCCAA", "RBNS enrichment (R)": 0.606}
{"Oligonucleotide": "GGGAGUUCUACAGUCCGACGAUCGAAGUAUUUAAAAUUAAUCACCUUAGCUCUACCAUAUACUAGAUCUGUGACCGCUACACAAAUUGUUUAUCAUCUUUGGGUCUCUAUUGCCUUCUUUAUAAAAUAAGUGUUGGAAUUCUCGGGUGCCAA", "RBNS enrichment (R)": 0.367}
{"Oligonucleotide": "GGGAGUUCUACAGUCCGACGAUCUCACCUCUCUCUGAGGACAGAGCUUGAAGCCUCCACACCAGCUGCUGCUGGAGAUUCAAAGCCCAACUGUGGGUCCGAGAGGGAAGCUGGCUGGGCUGGCUGAAGAAUGAUGGAAUUCUCGGGUGCCAA", "RBNS enrichment (R)": 1.22}
{"Oligonucleotide": "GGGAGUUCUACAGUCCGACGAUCGAUGACUAUUUUGUGACUUUCUUAAAAGGUCUGAUUUGUAGACUUCUAAAUAUAACACACAGCACAGAGACGGUUGCCUGUGUUGUCAUUCCUCAAGAGCCUUUGUAUCAUGGAAUUCUCGGGUGCCAA", "RBNS enrichment (R)": 1.28}
{"Oligonucleotide": "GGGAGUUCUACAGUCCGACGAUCUUAAUUUUUUCAGGUAUUUUUCUAUUUAGUGUUGCAGCCAAAGAGUAUUUAAAUUAAGUCUUUGCUGCACUUAAAUUCAUACCCAGCCAAAAUGGAACUUUAGGCCAACCUGGAAUUCUCGGGUGCCAA", "RBNS enrichment (R)": 0.354}
{"Oligonucleotide": "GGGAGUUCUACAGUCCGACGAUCAAGGUGACCGCCCAGCUCUCCCACAUCCCACUGGAUCUGGCUUACAGGGGGGUCGGAAGCCUGUCCUCACCGUCUCGGGGGUUGUGGCCCCCGCCCCCUCCCUAUAUGCAUGGAAUUCUCGGGUGCCAA", "RBNS enrichment (R)": 3.39}
{"Oligonucleotide": "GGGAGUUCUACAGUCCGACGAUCCAUUACCCAUCUACUGUCGCAUGGUAGGAUAGCUUUUUGUCUCUGAAUAUGUGAAUAACUUGACUUGCGUUGAUCUUUUUACAUAUUUAAUAAAAAAACUAUACGUUAAAUGGAAUUCUCGGGUGCCAA", "RBNS enrichment (R)": 0.614}
{"Oligonucleotide": "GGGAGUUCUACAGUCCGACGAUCCAGGAACAGAAGGCAGCUGCUGCUUUCUGUGGAAACCUGGCCCCUCUGGAAUUGGCCUCUGUGGGCAUUGACUCGUCUUGGCCUAGGAGGCAUUGGUGCCUCCCUGGCAAUGGAAUUCUCGGGUGCCAA", "RBNS enrichment (R)": 0.588}
{"data": "Series 2", "target": "CCND3, cyclin fold, Cln2 fusion (human)", "technique": "yeast growth competition, sequencing", "matrix": "yeast", "setting": "weak parent motif", "reference": "not given", "direction": "higher = stronger binding", "parent": "REV3L docking peptide (human); PPVIIKYIIINRF; partner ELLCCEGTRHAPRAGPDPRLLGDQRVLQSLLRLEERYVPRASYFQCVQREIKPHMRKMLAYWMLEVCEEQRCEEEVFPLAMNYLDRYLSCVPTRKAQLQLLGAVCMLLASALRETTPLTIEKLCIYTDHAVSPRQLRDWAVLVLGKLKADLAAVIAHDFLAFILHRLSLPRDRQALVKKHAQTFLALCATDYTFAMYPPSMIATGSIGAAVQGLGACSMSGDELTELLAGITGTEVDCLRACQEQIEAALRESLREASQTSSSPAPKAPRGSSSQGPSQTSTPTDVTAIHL"}
{"Change": "PPVAIKYIIINRF [I4A]", "normalised enrichment score": -0.108}
{"Change": "PAVIIKYIIINRF [P2A]", "normalised enrichment score": -0.063}
{"Change": "PPVIIKYIIINAF [R12A]", "normalised enrichment score": 0.274}
{"Change": "PPAIIKYIIINRF [V3A]", "normalised enrichment score": -0.0257}
{"Change": "PPVIIKYAIINRF [I8A]", "normalised enrichment score": 0.159}
{"Change": "PPVIIKAIIINRF [Y7A]", "normalised enrichment score": 0.461}
{"Change": "PPVIIKYIIIARF [N11A]", "normalised enrichment score": 0.361}
{"data": "Series 3", "target": "ABI1, truncated, D143A, DHFR fusion (Arabidopsis thaliana)", "technique": "DHFR PCA, deep sequencing", "matrix": "yeast", "setting": "methotrexate growth selection, single substitutions", "with": "(+)-ABA 4.8 µM", "reference": "wild-type fitted maximum", "direction": "higher = stronger binding", "parent": "PYL1, truncated, DHFR fusion (Arabidopsis thaliana); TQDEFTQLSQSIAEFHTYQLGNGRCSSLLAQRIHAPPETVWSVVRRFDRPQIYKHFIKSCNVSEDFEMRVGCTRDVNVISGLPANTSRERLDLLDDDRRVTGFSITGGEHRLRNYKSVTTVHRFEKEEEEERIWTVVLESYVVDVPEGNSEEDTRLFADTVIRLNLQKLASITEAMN"}
{"Change": "Q167A", "relative binding score [%]": 77.3}
{"Change": "S171D", "relative binding score [%]": 83.3}
{"Change": "A84K", "relative binding score [%]": 5.11}
{"Change": "F47V", "relative binding score [%]": -8.31}
{"Change": "K168F", "relative binding score [%]": -1.42}
{"Change": "E174N", "relative binding score [%]": 7.94}
{"Change": "G148Q", "relative binding score [%]": 25.1}
{"Change": "V78L", "relative binding score [%]": 80.8}
{"Change": "T86D", "relative binding score [%]": 58.8}
{"Change": "A170V", "relative binding score [%]": -3.77}
{"Change": "P50F", "relative binding score [%]": -9.22}
{"Change": "H34P", "relative binding score [%]": 34.3}
{"Change": "S140F", "relative binding score [%]": -0.434}
{"Change": "E89Y", "relative binding score [%]": -14}
{"Change": "A158C", "relative binding score [%]": 108}
{"data": "Series 4", "target": "Interferon regulatory factor 7, full length, phosphomimetic (IRF7, Homo sapiens, UniProt Q92985, residues 1-503, S471D/S472D/S475D/S476D/S477D/S483D/S484D/S487D)", "technique": "protein-binding microarray", "molecule type": "double-stranded DNA, one strand shown", "matrix": "in vitro", "concentration": "2200 nM top", "setting": "60-bp whole probe", "with": "salmon DNA 0.4 mg/ml", "reference": "random background probes", "direction": "higher = stronger binding", "constant ends, left off below": "GCCTAGCAC … GTCTTGATTCGCTTGACGCTGCTG", "UniProt Q92985, sequence (whole entry, unmodified, looked up)": "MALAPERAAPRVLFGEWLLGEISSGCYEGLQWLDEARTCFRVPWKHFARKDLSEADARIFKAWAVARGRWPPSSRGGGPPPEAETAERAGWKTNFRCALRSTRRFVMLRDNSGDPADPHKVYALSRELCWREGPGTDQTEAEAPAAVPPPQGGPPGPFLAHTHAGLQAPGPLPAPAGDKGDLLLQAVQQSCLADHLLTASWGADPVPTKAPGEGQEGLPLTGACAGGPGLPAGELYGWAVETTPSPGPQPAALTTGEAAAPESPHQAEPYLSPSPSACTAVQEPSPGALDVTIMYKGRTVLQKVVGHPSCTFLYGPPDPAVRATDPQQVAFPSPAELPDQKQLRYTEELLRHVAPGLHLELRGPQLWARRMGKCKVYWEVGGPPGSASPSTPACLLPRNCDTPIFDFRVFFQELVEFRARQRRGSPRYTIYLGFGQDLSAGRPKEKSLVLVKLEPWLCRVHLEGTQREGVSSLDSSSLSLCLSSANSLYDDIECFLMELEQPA"}
{"Oligonucleotide": "TTCTCTTTCATTGCTGCCCTGTGCTAG", "fitted relative affinity": "2.66 z-score"}
{"Oligonucleotide": "TTAGCTATCCTTCTCCTTTAGTGCTAG", "fitted relative affinity": "1.43 z-score"}
{"Oligonucleotide": "GACGGTACCGGACTGGGGACGTGCTAG", "fitted relative affinity": "-0.573 z-score"}
{"Oligonucleotide": "TTAGGACTGGGTCTCGTTTAGTGCTAG", "fitted relative affinity": "-0.0187 z-score"}
{"Oligonucleotide": "AGAGCAGACCCAGAGTGGCAGTGCTAG", "fitted relative affinity": "-0.733 z-score"}
{"Oligonucleotide": "GAACCTTCAGCTCTAGGTTCGTGCTAG", "fitted relative affinity": "1.45 z-score"}
{"Oligonucleotide": "CTAATATTGAGACTCATGGGGTGCTAG", "fitted relative affinity": "-0.156 z-score"}
{"Oligonucleotide": "TCAAGTCTTGTTTTACAACTGTGCTAG", "fitted relative affinity": "0.955 z-score"}
{"Oligonucleotide": "TTAGGTTTCGACACTGGGCTAGTGCTA", "fitted relative affinity": "2 z-score"}
{"Oligonucleotide": "GACGGACTCCTTATCCTGACGTGCTAG", "fitted relative affinity": "1.13 z-score"}
{"Oligonucleotide": "TCACTTCTGGTCTTCTGACTGTGCTAG", "fitted relative affinity": "2.17 z-score"}
{"Oligonucleotide": "TTAGATCTCAGTAGCGATTAGTGCTAG", "fitted relative affinity": "-0.36 z-score"}
{"Oligonucleotide": "TTAAGTATCCTACTGCTTTAGTGCTAG", "fitted relative affinity": "0.507 z-score"}
{"Oligonucleotide": "CCCACCTCTCACGGGCTTGTGTGCTAG", "fitted relative affinity": "0.103 z-score"}
{"Oligonucleotide": "GACGATTTCGGGTTGCGAGACGTGCTA", "fitted relative affinity": "6.05 z-score"}
{"Oligonucleotide": "TACTCTACAGGGTTTCACTTTGTGCTA", "fitted relative affinity": "2.65 z-score"}
{"Oligonucleotide": "TCAATTCTGAATTCGAAACTGTGCTAG", "fitted relative affinity": "0.925 z-score"}
{"Oligonucleotide": "TCATATTTTTTTCCAGAACTGTGCTAG", "fitted relative affinity": "0.907 z-score"}
{"Oligonucleotide": "GACTGACTGGGGTATCGGGACGTGCTA", "fitted relative affinity": "-0.574 z-score"}
{"Oligonucleotide": "TCAGTTATCCATCTCAAACTGTGCTAG", "fitted relative affinity": "1.18 z-score"}
{"Oligonucleotide": "TCATAGTTTCTTTTCTTACTGTGCTAG", "fitted relative affinity": "4.53 z-score"}
{"Oligonucleotide": "TTTTTTTTTTTTGTATTTTTGTGCTAG", "fitted relative affinity": "2.63 z-score"}
{"Oligonucleotide": "GACGGTTTCGGTATCGGGATGTGCTAG", "fitted relative affinity": "7.93 z-score"}
{"Oligonucleotide": "GACGGTCTCCTTCTTCTGACGTGCTAG", "fitted relative affinity": "1.27 z-score"}
{"Oligonucleotide": "TCATTTTGCACTCTCTAACTGTGCTAG", "fitted relative affinity": "2.87 z-score"}
{"note": "For quick reference, copied from above (series 3):"}
{"Change": "V78L", "relative binding score [%]": 80.8}
{"Change": "F47V", "relative binding score [%]": -8.31}
{"Change": "A84K", "relative binding score [%]": 5.11}
{"Change": "P50F", "relative binding score [%]": -9.22}
{"Change": "A158C", "relative binding score [%]": 108}
